Results collected from several papers.
Parts stem from different laboratories: compare values within a part only.

Sample 1
Target: RNA binding protein fox-1 homolog 2, RRM domain, GST-SBP tag (RBFOX2, Homo sapiens, UniProt O43251-10, residues 100-194)
Method: RNA Bind-n-Seq
Form: RNA
Medium: in vitro
Concentration: 365 nM
Setting: natural RNA segment, single round, ends assumed
Reference: no-protein control
Reading: higher = stronger binding
All sequences stand within: GGGAGUUCUACAGUCCGACGAUC … UGGAAUUCUCGGGUGCCAA
Residues (chain): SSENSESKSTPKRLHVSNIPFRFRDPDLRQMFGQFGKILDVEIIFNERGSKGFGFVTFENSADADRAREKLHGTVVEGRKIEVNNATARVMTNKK
Sequence	RBNS enrichment (R)
AGGAGAACCUGCAGCAUGGUGGGAAAUGGGGACACUACCUCCCAGGAUGACUGUGUGAGCAAAGAGCGCAGCUCCUCCAGGUGACCACAUGUGGCCGCUGUCUGUGCCAG	5.67
ACCUAAAUGAAUUUCAUGAUUAGAGGUGCUCCCACCUGCCAAAUAAUCCCGCCACAAAUAUGCAAAUAUUGCAAAAUCAAAAAUAAUUCUGAAAUUAUUCUGAAACACUU	0.552
UUCUGGUGCUUUUGCUUACUAAGAGACCGAUAUUCUUAAGUUGUUUUCUUGUUUUAACAGCCUUGAGAAAUGUUUGGUUUUGGCCAGCAGAAUUCUUGUCUACUUUUUUC	0.332
CGUUGGGUGUGUUGGAAUUGUUCUCUUCGGCCUUGUUCUGCCUUGUGAUCUUUUCAAUUCAGUGAAUAAACCAGGAAUCCAUUUUUUCACCAACCCACCCUGUAGAUUGU	0.541
AAUAUCUAUAAAAUAGAUAUAAAUUUUUAAAAUAGUUUAGUAUCAUCAAAGAAAAAAUAAGUAGUAUUUAAGAUGUGAAAAAUGAACAACCUAAAAUAUAUUUUCCAAGC	0.959
AGUAUAUACUAACAUCAUUCUGCCAAGGUAGGAAGCCCCUGACCCCCAAGCAGUGGUGCCACUCUUCCAAGCCUCUUGGUGCACAGUAAACCUAUUGCUUGAAGCUUUGA	0.427
CUGCCCCACCAAAUGCUCAACCUUAGGUGGAAUCUCCCUGGAACACAUACCAGGUCAGGGAGGGCCGAUCCUUCCUCCACCUUUUUCCUGGCAUAUGUUUAAGGUAACAA	0.312
GCUGUUAGAGAGUGCCAUGAGUGGAAAAUACCUGCACGAUGACUUCGCCCUGCCCUGCCCACCGGGGCUGAAAAUUCCUGAGGAAGAUGGUUACACCAUCACCCCCAACA	1.95

Sample 2
Target: RING finger protein unkempt homolog, zinc fingers 1-6, GST-SBP tag (UNK, Homo sapiens, UniProt Q9C0B0, residues 30-357)
UniProt Q9C0B0, sequence (30-357, looked up): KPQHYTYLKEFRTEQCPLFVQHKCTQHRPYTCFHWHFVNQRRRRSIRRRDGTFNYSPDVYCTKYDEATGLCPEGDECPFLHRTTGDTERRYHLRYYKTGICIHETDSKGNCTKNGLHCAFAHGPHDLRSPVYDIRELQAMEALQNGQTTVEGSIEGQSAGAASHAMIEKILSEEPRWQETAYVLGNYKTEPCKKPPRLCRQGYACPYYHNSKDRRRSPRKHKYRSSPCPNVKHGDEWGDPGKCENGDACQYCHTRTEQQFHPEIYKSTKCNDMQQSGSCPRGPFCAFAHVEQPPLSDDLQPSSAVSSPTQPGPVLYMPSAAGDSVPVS
Method: RNA Bind-n-Seq
Form: RNA
Medium: in vitro
Concentration: not given
Setting: RNA with constant flanks, human and mouse sites, ends assumed
Reference: input RNA pool
Reading: higher = stronger binding
All sequences stand within: GGGAGUUCUACAGUCCGACGAUC … CAACAGAGGAUUGAGCAUCA
Sequence	bound/input enrichment [ratio]
ACAAUUGCUUUGCUUGGUUACCUGAAACACUACCGAAAUAUUCCUGGACCUCACAUGGUUUUAGUUCCAAAGUCUACUUUACACAACUGGAUGAAUGAAUUUAAACGAUGGGUCCCAUCU	0.128
UGGGAUGCCUCCACAGAUGCACCUGAAAAGUCUUCUCUCUUUCACCAAGGAGGAAGAAGUAGUACUUUCCUGUCACAUAGCUUAAGUAACCAGGCCGGUGUUCACCAGUCUCUAGUAAGU	0.553
GAAAUAACAAGUCUUGAUACAGAGAAUAUAGAUGAAAUUUUAAACAAUGCUGAUGUUGCUUUAGUAAAUUUUUAUGCUGACUGGUGUCGUUUCAGUCAGAUGUUGCAUCCAAUUUUUGAG	20.3
AGUACACCUUAUCAAACCAACAACAGAGAUGCCUCCAUUGAAUCAUCAAACAGACACAAAACUGAGAAUGCCAGGGAACCAUGCAAGUAUAAGGACUGUGUGAAUGGCUUAAAUUUGUAU	0.231
CAGAGUAUAGCAAUUGUUUUUGGUCCCACUCUAUUAAAACCAGAAAAAGAGACUGGUAAUAUAGCAGUUCAUACUGUGUACCAGAAUCAGAUUGUAGAAUUAAUUCUUCUGGAACUGAGU	0.453
UCCUUGGAACCCAGUCAUAUAGGUGACCUGCAGAAAGCAGACACCAGUAGUCAAGGUGCUUUAGUGUUUCUCUCAAAGGACUACGAGAUAGAAAGUCAAAAUCCUCUGGCCUCUCCUACG	1.54
CAUGGCACAAGAAUAUAAGAAAGCAUGGGAUUAUGGCAACCACAGAAUCUCAGUAGUACAAGUUCCAUUCAGUUUUUUCUGAAAGAAAGCCCUCUGUUAAAGUGAAGCAAAGAAACUGUU	0.74
AUCACAGACAUCAUAAGUGGCCUUGGCAGUAACAAGUGGAUCCAGCAAAAUCUUCAGUGCUUAGUACUAAACUCAUUAACUCUGUCCCUCGAGGAUCCAUAUGAGCGGUGCUUCAGCCGG	0.197

Sample 3
Target: Sal-like protein 4, full length isoform B (SALL4, Homo sapiens, UniProt Q9UJQ4-2, residues 1-616)
Method: universal PBM
Form: double-stranded DNA, one strand shown
Medium: in vitro
Concentration: not given
Setting: 8-mer, flanks averaged, mean of replicates
Reading: higher = stronger binding
Construct (chain): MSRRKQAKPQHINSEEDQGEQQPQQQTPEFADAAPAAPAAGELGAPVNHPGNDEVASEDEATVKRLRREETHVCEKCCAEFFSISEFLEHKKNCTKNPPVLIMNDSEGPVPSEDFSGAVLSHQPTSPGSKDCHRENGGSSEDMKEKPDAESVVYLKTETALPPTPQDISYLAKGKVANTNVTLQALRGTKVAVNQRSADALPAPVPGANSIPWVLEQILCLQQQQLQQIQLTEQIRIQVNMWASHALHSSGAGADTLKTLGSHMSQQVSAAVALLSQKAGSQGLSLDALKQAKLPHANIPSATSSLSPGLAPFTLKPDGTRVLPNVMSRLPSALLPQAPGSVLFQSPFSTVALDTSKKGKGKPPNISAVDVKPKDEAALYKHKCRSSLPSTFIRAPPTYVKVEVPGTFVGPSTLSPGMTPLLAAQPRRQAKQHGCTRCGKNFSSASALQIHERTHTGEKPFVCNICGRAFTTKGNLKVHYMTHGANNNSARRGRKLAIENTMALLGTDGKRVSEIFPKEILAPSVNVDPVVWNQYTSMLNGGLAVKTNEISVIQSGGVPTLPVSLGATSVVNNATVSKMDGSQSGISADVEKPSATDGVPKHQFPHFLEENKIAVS
Sequence	E-score
TGTACCAA	0.0871
CTACTTCA	-0.0421
GACCAGCA	-0.244
AAAATCAT	0.373
GATCATCA	-0.0229
GGGTCGGA	-0.222
CTTTTTGC	-0.0921
ACTCTTGG	-0.0787
AGCGGCTG	-0.217
GGTCCGCA	-0.297
GGACTAAC	-0.133
CCATCACG	-0.0527
CAAACGCA	-0.001
GACTCAGA	-0.215
CTCCAAAA	0.0425
ACACGCTC	-0.0229
ATCCCCAG	-0.113
CGTATCGC	-0.052
CGCCGATA	-0.116
AATACGCG	0.00975
CCAATCAG	-0.267
ACTGCAAT	0.0619
AACAGTCG	-0.1
GAACTTCC	-0.132

Sample 4
Target: Phosphate system positive regulatory protein PHO4, full length, GST-tagged (PHO4, Saccharomyces cerevisiae, UniProt P07270, residues 1-312)
Method: competition protein-binding microarray
Form: double-stranded DNA, one strand shown
Medium: in vitro
Concentration: 2 µM
Setting: whole 60-bp probe, lowest competitor level
Together with: Cbf1 competitor, 0.05 µM
Reading: higher = stronger binding
All sequences stand within: … GTCTTGATTCGCTTGACGCTGCTG
Construct (chain): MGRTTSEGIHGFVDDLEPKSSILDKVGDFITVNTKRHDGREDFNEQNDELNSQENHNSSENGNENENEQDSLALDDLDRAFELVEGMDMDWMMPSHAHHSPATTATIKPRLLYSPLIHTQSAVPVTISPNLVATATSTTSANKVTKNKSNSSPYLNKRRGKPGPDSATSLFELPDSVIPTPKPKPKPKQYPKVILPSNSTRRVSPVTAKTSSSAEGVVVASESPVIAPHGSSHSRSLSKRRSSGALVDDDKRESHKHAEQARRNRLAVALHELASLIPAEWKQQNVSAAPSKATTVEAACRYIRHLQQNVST
Sequence	fluorescence intensity
CTAAATGGGTAAAAACTCGTGTTTTAGGAAAAAAAA	8090 a.u.
AAATTACTAAGTTTTCACGTGCCGTACCCCGTATGA	14900 a.u.
AGTTACCCAGCCGCCCTCGTGCTTTGTAGTGCCATC	14800 a.u.
CAAAGAAGTAACCTCCACGTTAAGTGCTGAAATAAC	6230 a.u.
TTTCAAAAATTTCTTAACGTGGGTATTCTTCTTCCT	6950 a.u.
CGCTAAAATTATAACGGCGTGCTGTAGAGAAAAACC	9780 a.u.
CGTCCTAGTGATTGCTATGTGGGTGCCATGAGGAAG	7550 a.u.
ACATCTGTCTGGTTTGACGTGACAAATACCTTTCTT	4090 a.u.
CATACCCAACCTTGTCACTGGACTTAAGATATTTGT	3200 a.u.
GAAGGTTTGATCCATCACGTGCCAGATTTTATACCG	17000 a.u.
CGGGGTTAAGTTTGTCACCATACTTGCTTGCAGCAG	3800 a.u.
CGGGGTTAAGTTTGACTTGTGGGTGGCTTGCAGCAG	5050 a.u.
GAGTGCTTTGTTTCTTCCGTGATGGTTTAATGGTCA	3610 a.u.
TGCGCAACAACTTGAAGAGTGGGTGTATGTCTAGAA	4940 a.u.
CAATTCTTTTACCATCACGTCACCTAACCAACCATT	5190 a.u.
GGAGCAGGACTCTGCCGCGTGTCCTTCCCGGCTCCG	8410 a.u.
CTTCTGTAAATTTGTCACCTCACTTGACGCGCCCCG	3780 a.u.
CTAACGAAGGTTTGTGCCGTGGGTGACAAGCCAAGT	4940 a.u.
TTGAAGGTGAAGCCTTCCGTGCAAAATGCGAAAAAA	3800 a.u.
